Experimental data gathered from unrelated publications.
± marks the error that the study gave.
Sequence of UniProt P30989 (whole entry, looked up): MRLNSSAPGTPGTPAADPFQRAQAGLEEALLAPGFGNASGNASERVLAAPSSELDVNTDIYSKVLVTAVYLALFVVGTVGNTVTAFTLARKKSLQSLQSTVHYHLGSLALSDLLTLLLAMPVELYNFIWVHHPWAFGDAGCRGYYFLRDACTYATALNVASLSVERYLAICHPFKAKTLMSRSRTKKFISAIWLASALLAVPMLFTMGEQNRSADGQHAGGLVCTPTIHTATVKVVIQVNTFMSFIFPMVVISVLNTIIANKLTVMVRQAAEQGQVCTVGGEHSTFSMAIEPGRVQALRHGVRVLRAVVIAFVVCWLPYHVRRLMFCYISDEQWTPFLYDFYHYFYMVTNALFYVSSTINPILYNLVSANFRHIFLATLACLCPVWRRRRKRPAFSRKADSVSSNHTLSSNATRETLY
Sequence of UniProt Q14315 (whole entry, looked up): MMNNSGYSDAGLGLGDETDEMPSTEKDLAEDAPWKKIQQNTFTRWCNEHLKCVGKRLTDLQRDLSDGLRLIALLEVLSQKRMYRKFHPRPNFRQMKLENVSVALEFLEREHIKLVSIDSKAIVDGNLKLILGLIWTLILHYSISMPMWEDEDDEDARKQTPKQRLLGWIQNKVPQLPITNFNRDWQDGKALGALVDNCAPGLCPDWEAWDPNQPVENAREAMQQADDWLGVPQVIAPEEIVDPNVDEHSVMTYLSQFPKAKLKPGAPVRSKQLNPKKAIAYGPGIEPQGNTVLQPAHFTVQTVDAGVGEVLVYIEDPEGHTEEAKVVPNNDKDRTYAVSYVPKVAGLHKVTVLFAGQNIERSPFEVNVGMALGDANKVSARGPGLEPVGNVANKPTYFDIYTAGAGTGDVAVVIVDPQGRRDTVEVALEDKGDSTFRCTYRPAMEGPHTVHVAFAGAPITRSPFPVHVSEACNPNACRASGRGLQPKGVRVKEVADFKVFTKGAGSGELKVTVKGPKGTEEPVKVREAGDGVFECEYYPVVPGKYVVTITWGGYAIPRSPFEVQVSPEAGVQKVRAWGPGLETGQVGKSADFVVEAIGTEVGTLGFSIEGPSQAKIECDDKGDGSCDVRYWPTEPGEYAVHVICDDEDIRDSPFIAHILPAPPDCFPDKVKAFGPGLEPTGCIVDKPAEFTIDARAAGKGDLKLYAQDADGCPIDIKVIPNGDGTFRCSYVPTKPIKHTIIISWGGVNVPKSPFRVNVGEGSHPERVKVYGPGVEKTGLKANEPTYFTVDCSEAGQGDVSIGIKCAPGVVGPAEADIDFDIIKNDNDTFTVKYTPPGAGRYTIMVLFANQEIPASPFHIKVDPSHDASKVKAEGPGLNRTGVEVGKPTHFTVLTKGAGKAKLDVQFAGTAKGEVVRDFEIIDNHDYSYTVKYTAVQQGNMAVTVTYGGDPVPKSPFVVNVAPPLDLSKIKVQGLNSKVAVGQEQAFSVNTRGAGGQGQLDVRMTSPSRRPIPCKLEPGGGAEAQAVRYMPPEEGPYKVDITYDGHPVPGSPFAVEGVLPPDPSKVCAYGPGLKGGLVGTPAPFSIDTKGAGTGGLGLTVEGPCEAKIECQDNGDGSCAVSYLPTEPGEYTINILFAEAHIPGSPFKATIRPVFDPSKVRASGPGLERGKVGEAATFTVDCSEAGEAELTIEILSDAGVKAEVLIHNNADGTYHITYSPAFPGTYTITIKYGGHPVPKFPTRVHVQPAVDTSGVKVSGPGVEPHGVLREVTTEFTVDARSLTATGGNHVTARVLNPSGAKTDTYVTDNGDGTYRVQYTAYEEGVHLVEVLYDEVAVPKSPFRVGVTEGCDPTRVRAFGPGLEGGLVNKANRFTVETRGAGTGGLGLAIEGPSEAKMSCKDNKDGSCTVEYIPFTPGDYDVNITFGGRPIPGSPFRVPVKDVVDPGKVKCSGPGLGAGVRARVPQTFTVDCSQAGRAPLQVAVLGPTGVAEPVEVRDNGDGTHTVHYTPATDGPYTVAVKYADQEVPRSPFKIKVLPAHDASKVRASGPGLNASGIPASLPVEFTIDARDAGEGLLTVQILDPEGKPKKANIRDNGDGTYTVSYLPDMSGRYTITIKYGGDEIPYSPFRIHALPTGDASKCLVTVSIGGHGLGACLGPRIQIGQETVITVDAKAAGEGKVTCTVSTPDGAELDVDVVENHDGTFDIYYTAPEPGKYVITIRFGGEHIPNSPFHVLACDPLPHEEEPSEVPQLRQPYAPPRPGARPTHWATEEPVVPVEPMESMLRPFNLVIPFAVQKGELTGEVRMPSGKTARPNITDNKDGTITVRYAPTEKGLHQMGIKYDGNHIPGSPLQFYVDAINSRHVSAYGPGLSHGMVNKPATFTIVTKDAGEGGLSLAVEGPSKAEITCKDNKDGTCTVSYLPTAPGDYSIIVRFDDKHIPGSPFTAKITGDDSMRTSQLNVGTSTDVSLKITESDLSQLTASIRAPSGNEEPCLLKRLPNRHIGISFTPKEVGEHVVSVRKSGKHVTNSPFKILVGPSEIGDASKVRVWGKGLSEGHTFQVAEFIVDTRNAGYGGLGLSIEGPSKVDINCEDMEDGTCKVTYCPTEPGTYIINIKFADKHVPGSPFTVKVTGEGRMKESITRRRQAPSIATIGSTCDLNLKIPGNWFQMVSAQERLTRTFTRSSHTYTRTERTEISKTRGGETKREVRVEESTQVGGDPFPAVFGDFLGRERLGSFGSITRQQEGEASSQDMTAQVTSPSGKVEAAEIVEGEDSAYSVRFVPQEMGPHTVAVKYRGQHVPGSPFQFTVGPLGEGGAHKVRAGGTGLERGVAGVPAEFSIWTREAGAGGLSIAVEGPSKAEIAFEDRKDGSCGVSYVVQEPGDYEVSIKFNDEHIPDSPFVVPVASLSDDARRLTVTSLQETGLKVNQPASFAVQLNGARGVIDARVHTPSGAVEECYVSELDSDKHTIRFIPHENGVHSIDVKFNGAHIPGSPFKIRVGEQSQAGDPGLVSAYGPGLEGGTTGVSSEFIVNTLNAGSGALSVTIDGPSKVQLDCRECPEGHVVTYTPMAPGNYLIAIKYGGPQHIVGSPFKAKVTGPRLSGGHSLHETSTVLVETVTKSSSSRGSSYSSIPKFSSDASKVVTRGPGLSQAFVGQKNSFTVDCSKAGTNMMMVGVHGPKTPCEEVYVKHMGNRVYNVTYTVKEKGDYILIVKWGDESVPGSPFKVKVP

Compound	tested on	assay	system	conditions	how to read	measurement	result
COc1cc2c(Oc3ccc4[nH]c(C)cc4c3F)ccnc2cc1OCC1(N)CC1			paediatric recurrent refractory sarcoma	8 mg/kg		grade 3 Anorexia	0%
COc1c(C)c2c(c(O)c1C/C=C(\C)CCC(=O)O)C(=O)OC2	MIA PaCa-2	cell proliferation				IC50	631 nM
O=C([O-])[C@@]1(CCCCCCOc2ccc(Cl)cc2)CO1.[Na+]	human coronavirus OC43	virus-induced cell killing	MRC-5	screen		maximum inhibition	4.87%
CC[C@H](C)[C@H](NC(=O)[C@H](Cc1ccccc1)NC(=O)[C@H](CCC(=O)O)NC(=O)[C@H](CCCNC(=N)N)NC(=O)[C@H](C)NC(=O)[C@H](C)NC(=O)[C@H](CCC(N)=O)NC(=O)[C@H](CCC(=O)O)NC(=O)[C@H](CCC(=O)O)NC(=O)[C@H](CC(C)C)NC(=O)[C@H](Cc1ccc(O)cc1)NC(=O)[C@H](CO)NC(=O)[C@H](CO)NC(=O)[C@@H](NC(=O)[C@H](CC(=O)O)NC(=O)[C@H](CO)NC(=O)[C@@H](NC(=O)[C@H](Cc1ccccc1)NC(=O)[C@@H](NC(=O)CNC(=O)[C@H](CCC(=O)O)NC(=O)[C@H](C)NC(=O)CCc1c[nH]cn1)[C@@H](C)O)[C@@H](C)O)C(C)C)C(=O)N[C@@H](C)C(=O)N[C@@H](Cc1c[nH]c2ccccc12)C(=O)N[C@@H](CC(C)C)C(=O)N[C@H](C(=O)N[C@@H](CCCNC(=N)N)C(=O)NCC(=O)N[C@@H](CCCNC(=N)N)C(=O)N[C@@H](CCCCNC(=O)COCCOCCNC(=O)COCCOCCNC(=O)CC[C@H](NC(=O)CCCCCCCCCCCCCCCCC(=O)O)C(=O)O)C(=O)NCC(=O)NCC(=O)N[C@@H](CO)C(=O)N[C@@H](CCCCNc1c(NCCCCCN(O)C(=O)CCC(=O)NCCCCCN(O)C(=O)CCC(=O)NCCCCCN(O)C(C)=O)c(=O)c1=O)C(=O)O)C(C)C [zirconium-89 labelled]		gamma counting	rat, colon content	intravenous, 3 nmol/kg, 72 h		tissue uptake	0.1 %ID/g
Nc1nccc(Oc2ccc(NC(=O)c3c[nH]cc(-c4ccc(F)cc4)c3=O)cc2F)c1Cl	human coronavirus OC43	virus-induced cell killing	MRC-5	screen		maximum inhibition	4.52%
COc1cc(CCC[P+](c2ccccc2)(c2ccccc2)c2ccccc2)c(OC)c2c1OCO2.[I-]	COLO 205	SRB				LC50	-4.73 log M
CC[C@H](C)[C@@H]1NC(=O)[C@@H]2CCCN2C(=O)[C@H](CC(C)C)NC(=O)[C@H](CC(C)C)NC(=O)CNC(=O)[C@@H](NC(=O)[C@@H](NC(=O)[C@H](CC(=O)O)NC(=O)CNC(=O)[C@@H](NC(=O)[C@H](C)NC(=O)CNC(=O)[C@H](CCCCN)NC(=O)[C@H](CC(C)C)NC(=O)[C@H](CC(C)C)NC(=O)[C@H](CCCCN)NC(=O)CNC(=O)[C@@H](NC(=O)[C@@H](N)CC(C)C)C(C)C)C(C)C)C(C)C)CSSC[C@@H](C(=O)O)NC1=O		RNA-seq, measured: Casp1	mouse, traumatic brain injury model, frontal cortex and hippocampus	dose not given	reference: TBI alone	log2 fold change	0.995
S=c1nc[nH]c2nc[nH]c12	human coronavirus OC43	virus-induced cell killing	MRC-5	screen		maximum inhibition	5.14%
C[C@H]1CN(c2n[nH]c3nc(N[C@H]4CC[C@H](NS(=O)(=O)CCC(F)(F)F)CC4)ncc23)CCO1	Filamin-C (FLNC, Homo sapiens, UniProt Q14315)	Kinobeads competition, measured: FLNC		0.16 µM, unit not given	reference: vehicle	remaining binding	1.08
Nc1ncnc2c1ncn2[C@@H]1O[C@@H]2COP(=O)(O)O[C@H]3[C@@H](O)[C@H](n4cnc5c(=O)[nH]cnc54)O[C@@H]3COP(=O)(O)O[C@H]2[C@H]1O	Zika virus	upregulated Reactome pathway, RNA sequencing, measured: GPCR ligand binding (R-HSA-500792)	HFF-1		reference: ZIKV-infected untreated	fold enrichment	2.62
CCCNCCc1c[nH]c2cccc(O)c12.CCCNCCc1c[nH]c2cccc(O)c12.O=C(O)/C=C/C(=O)O			C57BL/6J mice	subcutaneous, 0.3 mg/kg	reference: pre-session baseline	body temperature change	-0.1 ± 0.1 °C
COc1c(CCC[P+](c2ccccc2)(c2ccccc2)c2ccccc2)cc2c(c1OC)OCO2.[I-]	A549	NCI60 SRB				LC50	> -4 log M
COc1cc(Nc2ncc(F)c(Nc3ccc4c(n3)NC(=O)C(C)(C)O4)n2)cc(OC)c1OC	NTSR1 (Homo sapiens, UniProt P30989)					IC50	> 10000 nM

A few entries again:
Compound	tested on	assay	system	conditions	how to read	measurement	result
COc1cc(CCC[P+](c2ccccc2)(c2ccccc2)c2ccccc2)c(OC)c2c1OCO2.[I-]	COLO 205	SRB				LC50	-4.73 log M
